Published values of several laboratories.
Protocols differ between the studies behind these lines. Numbers after ± are the reported error.

O=C1NC2(CC2)COc2ncc(F)cc2[C@H]2COCCN2c2ccn3ncc1c3n2  cells with chromosome gaps (CHL cells; chromosomal aberration test; 10 µg/mL, 24 h, without S9 mix): 1%
Cc1cc(NC(=O)C(=O)N2C[C@@H](C)CC[C@@H]2c2ccc3scnc3c2)cnc1N  Papp A to B (MDCK-II; 2 h, passive permeability): 197 nm/s
C[C@@H]1O[C@@H](O[C@@H]2[C@@H](O)[C@H](O)[C@@H](CO)O[C@H]2c2c(O)cc(O)c3c(=O)cc(-c4ccc(O)cc4)oc23)[C@H](O)[C@H](O)[C@H]1O  Papp increase (Caco-2 monolayer; transwell permeability; 100 µg/mL, apical to basolateral, HBSS, DMSO 1%, added: verapamil 0.1 mg/mL; relative to: verapamil alone): 31.3%
Cc1ccc2ccc(Cl)c(O)c2n1  Papp (RRCK low-efflux MDCK-II cells; 1.5 h, 37 °C, apical to basal): 98.5 nm/s
COC(=O)c1cc(O)c(=O)c(O)cc1C  CC50 (LX-2; cell growth or viability, MTS): 88 µM
Cc1cccnc1-c1csc(C(=O)Nc2cc(Cl)cc(NS(C)(=O)=O)c2)c1  CC50 (human PBMC; cell growth or viability, ATP luminescence; 10 days): > 10 µM
O=CCNCCOn1c(=O)n(OCCNCCO)c(=O)n(OCCNCCOn2c(=O)n(OCCNCCO)c(=O)n(OCCNCCO)c2=O)c1=O  viability (HUVEC; cell growth or viability, MTT; 200 µg/mL, 24 h): 34.4%
Cc1ccc2c(C#N)ccc(O)c2n1  Papp (RRCK low-efflux MDCK-II cells; 1.5 h, 37 °C, apical to basal): 23.6 nm/s
C[C@]12CC[C@@H]3c4ccc(O)cc4CC[C@H]3[C@@H]1CC[C@@H]2O[C@@H]1O[C@H](C(=O)O)[C@@H](O)[C@H](O)[C@H]1O  uptake (HEK293-A empty vector; 1 µM, 2 min): 217 fmol/mg protein
Cc1cc(=O)c2c(O)c3c(O[C@@H]4O[C@H](CO)[C@@H](O)[C@H](O)[C@H]4O)cc(O)cc3cc2o1  cell viability (HK-2 co-cultured with HepaRG; MTT; 266.67 µM, 48 h; relative to: untreated control): 55.2 ± 3.07%
Nc1ncnc2c1ncn2[C@@H]1O[C@H](CSCc2ccc(Cl)cc2Cl)[C@@H](O)[C@H]1O  CC50 (L2 rat cells; cytotoxicity, crystal violet): > 200 µM
Cc1nc(=S)[nH]c(C)c1/N=N/c1nnc(S)s1  CC50 (Vero; cell growth or viability, MTT; 72 h): ≥ 10 mg/L
CN1CCCNC(=O)c2cccc(c2)C(=O)NCCCN(C)CCCNc2cccc3c2C(=O)c2cccc(c2C3=O)NCCC1  viability (HEK293; cell growth or viability, CCK-8; 0.15 µM, 48 h): 91.4%
CC[C@H]1OC(=O)[C@H](C)[C@@H](OC(=O)Cc2cccc([N+](=O)[O-])c2)[C@H](C)[C@@H](O[C@@H]2O[C@H](C)C[C@H](N(C)C)[C@H]2O)[C@](C)(OC)C[C@@H](C)C(=O)[C@H](C)[C@@H](O)[C@]1(C)O  CC50 (HEK293; cell growth or viability): > 32 mg/L
COC(=O)c1c(CCl)cc(O)c(=O)c(O)c1C(=O)OC  CC50 (LX-2; cell growth or viability, MTS): > 100 µM
CCC1(CC)CC(=O)N(C2c3cc(C(=O)NC4c5ccccc5CC4O)ccc3OC2(C)COC)C(=N)N1 (centres unmarked)  Papp (MDCK-II): 39 ± 5 nm/s
COc1ccc(O)c2nc(C)ccc12  Papp (RRCK low-efflux MDCK-II cells; 1.5 h, 37 °C, apical to basal): 21.5 nm/s
N=C(N)NCCC[C@@H]1NC(=O)[C@H](CCCNC(=N)N)NC(=O)[C@@H](CCCNC(=N)N)NC(=O)[C@@H](CCCNC(=N)N)NC(=O)[C@@H](C(c2ccccc2)c2ccccc2)NC(=O)[C@H](Cc2c[nH]c3ccccc23)NC(=O)[C@@H](C(c2ccccc2)c2ccccc2)NC1=O  viability (HEK293; cell growth or viability, MTS; 100 µg/mL, 24 h): > 90%
O=C(Nc1cc(-c2ccnc3[nH]ccc23)c(Cl)cn1)[C@H]1CCC[C@@H](NC(=O)C(F)(F)F)C1  recovery (MDCK-MDR1 cells; permeability; time not given, apical to basolateral): 86.6%
Cc1ccc2c(C)ccc(O)c2n1  Papp (RRCK low-efflux MDCK-II cells; 1.5 h, 37 °C, apical to basal): 5.5 nm/s
COc1cc(C(=O)/C=C/c2ccc(OC(F)F)cc2)ccc1O  IC50 (U-118-MG; cell growth, MTT; 72 h): 15.1 ± 0.76 µM
Cc1ccc2ccc([N+](=O)[O-])c(O)c2n1  Papp (RRCK low-efflux MDCK-II cells; 1.5 h, 37 °C, apical to basal): 46 nm/s
CC(CCCOC(=O)CCC[N+](C)(C)C)C1CCC2C3CCC4CC(OC(=O)CCC[N+](C)(C)C)CCC4(C)C3CCC12C (centres unmarked)  IC50 (NIH3T3; cytotoxicity, LDH release; 5% FBS): 48 mg/L
Cc1ccc2ccc(C)c(O)c2n1  Papp (RRCK low-efflux MDCK-II cells; 1.5 h, 37 °C, apical to basal): 41.4 nm/s
O=c1oc2cc(O)ccc2cc1-n1cc(COc2ccccc2)nn1  CC50 (J774; cell growth or viability, ATP luminescence; 72 h): > 80 µM
O=c1c(O)ccccc1O  CC50 (LX-2; cell growth or viability, MTS): 71 µM
Cc1cc(O)c2nc(C)ccc2c1  Papp (RRCK low-efflux MDCK-II cells; 1.5 h, 37 °C, apical to basal): 8.1 nm/s
O=C(/C=C/c1cc(Br)ccc1F)c1ccc(O)cc1  IC50 (U-118-MG; cell growth, MTT; 72 h): 17 ± 2.67 µM
CN1C/C(=C\c2cc(Cl)c(O)c(Cl)c2)C(=O)/C(=C/c2cc(Cl)c(O)c(Cl)c2)C1  cytotoxicity (L02; MTT; range over 3.75 to 60 µM, 24 and 48 h): not toxic
CCOC(=O)c1c(C(=O)OC)cn(CC(c2cn(C)c3ccccc23)c2cn(C)c3ccccc23)c1C  CC50 (human primary fibroblasts; viability, MTS; 24 h): > 20 µM
Cc1ccc(C)c(/C=C/C(=O)c2ccc(O)cc2)c1  IC50 (U-118-MG; cell growth, MTT; 72 h): > 20 µM
Cc1ccc2c([N+](=O)[O-])ccc(O)c2n1  Papp (RRCK low-efflux MDCK-II cells; 1.5 h, 37 °C, apical to basal): 38.6 nm/s
